Measurements of several laboratories.
Parts stem from different laboratories: compare values within a part only.
UniProt Q13976, sequence (whole entry, looked up): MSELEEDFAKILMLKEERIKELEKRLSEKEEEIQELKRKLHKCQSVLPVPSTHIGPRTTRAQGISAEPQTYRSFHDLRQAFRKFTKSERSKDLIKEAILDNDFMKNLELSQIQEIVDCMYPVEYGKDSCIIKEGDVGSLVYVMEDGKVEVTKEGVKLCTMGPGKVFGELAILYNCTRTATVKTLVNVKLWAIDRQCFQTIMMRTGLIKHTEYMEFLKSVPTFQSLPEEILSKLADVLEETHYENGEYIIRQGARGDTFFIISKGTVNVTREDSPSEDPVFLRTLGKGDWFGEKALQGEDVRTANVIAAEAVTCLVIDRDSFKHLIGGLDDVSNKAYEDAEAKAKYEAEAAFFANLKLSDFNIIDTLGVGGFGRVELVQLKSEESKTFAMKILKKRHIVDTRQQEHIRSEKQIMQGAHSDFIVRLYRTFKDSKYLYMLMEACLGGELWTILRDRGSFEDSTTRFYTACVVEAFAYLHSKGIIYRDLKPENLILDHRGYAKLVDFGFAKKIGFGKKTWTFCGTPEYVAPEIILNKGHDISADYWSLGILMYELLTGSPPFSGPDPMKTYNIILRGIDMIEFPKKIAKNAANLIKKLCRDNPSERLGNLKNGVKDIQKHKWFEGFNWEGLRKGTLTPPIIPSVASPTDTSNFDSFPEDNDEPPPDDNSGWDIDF
UniProt P22607, sequence (whole entry, looked up): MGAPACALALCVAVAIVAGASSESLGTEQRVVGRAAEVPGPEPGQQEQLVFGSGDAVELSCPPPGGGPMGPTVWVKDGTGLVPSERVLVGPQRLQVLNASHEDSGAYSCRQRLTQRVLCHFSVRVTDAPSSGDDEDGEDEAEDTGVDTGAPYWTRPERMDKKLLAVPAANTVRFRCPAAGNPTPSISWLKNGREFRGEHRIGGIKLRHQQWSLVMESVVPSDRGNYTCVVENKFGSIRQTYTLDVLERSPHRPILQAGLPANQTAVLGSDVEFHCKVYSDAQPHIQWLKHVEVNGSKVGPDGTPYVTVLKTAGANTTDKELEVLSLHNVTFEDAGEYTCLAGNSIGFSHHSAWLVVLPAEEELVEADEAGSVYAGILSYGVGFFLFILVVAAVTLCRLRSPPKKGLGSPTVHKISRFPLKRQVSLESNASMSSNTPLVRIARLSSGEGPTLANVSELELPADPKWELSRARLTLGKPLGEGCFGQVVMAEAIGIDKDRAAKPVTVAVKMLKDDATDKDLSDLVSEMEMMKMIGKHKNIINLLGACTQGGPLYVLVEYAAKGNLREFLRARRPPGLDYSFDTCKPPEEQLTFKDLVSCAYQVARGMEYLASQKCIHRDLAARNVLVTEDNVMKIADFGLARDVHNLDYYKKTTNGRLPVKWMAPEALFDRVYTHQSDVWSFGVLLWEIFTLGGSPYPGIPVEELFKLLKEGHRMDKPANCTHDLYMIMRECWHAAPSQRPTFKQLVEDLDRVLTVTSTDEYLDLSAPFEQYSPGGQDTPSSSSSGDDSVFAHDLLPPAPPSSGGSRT
UniProt Q9H1R3, sequence (whole entry, looked up): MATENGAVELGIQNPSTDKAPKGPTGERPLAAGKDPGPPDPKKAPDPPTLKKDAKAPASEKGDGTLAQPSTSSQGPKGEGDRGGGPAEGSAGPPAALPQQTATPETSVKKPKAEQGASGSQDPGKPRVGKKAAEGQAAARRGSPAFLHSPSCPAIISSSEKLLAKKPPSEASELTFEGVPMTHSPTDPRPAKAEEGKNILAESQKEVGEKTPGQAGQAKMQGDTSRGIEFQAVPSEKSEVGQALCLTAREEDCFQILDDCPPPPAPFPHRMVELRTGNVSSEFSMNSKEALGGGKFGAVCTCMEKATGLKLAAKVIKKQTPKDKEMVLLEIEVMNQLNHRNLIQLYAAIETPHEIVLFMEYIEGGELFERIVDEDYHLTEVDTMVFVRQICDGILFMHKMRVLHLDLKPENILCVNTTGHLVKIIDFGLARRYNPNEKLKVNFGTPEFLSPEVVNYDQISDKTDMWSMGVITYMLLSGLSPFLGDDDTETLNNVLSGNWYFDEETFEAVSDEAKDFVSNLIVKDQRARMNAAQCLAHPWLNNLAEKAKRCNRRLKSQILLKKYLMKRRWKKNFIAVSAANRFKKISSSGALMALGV
UniProt P46098, sequence (whole entry, looked up): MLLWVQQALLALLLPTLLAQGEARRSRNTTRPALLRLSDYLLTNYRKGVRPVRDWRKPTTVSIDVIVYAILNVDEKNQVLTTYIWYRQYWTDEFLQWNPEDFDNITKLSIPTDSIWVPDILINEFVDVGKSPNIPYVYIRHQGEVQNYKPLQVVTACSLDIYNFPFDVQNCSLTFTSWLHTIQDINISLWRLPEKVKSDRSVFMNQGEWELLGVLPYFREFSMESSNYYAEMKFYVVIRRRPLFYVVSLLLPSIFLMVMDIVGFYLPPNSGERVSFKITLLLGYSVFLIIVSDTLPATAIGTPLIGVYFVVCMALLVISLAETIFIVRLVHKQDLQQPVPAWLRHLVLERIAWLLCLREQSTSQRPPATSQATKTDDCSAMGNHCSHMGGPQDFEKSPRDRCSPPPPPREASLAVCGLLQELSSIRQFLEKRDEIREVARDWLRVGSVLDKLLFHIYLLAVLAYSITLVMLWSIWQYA
UniProt Q13555, sequence (whole entry, looked up): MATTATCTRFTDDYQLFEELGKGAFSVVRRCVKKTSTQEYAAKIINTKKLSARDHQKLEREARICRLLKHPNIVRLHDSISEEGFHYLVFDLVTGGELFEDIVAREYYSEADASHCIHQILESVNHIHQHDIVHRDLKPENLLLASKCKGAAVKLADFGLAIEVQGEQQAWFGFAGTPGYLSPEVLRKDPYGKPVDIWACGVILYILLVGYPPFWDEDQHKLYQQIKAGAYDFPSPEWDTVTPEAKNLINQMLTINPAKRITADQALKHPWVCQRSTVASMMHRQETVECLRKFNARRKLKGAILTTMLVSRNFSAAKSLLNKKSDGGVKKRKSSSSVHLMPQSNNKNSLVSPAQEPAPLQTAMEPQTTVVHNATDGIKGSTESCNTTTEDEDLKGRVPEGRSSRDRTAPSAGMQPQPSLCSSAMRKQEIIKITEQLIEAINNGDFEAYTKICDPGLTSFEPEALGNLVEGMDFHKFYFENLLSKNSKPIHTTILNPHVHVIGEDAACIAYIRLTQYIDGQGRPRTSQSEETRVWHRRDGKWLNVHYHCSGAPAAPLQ
UniProt Q15303, sequence (whole entry, looked up): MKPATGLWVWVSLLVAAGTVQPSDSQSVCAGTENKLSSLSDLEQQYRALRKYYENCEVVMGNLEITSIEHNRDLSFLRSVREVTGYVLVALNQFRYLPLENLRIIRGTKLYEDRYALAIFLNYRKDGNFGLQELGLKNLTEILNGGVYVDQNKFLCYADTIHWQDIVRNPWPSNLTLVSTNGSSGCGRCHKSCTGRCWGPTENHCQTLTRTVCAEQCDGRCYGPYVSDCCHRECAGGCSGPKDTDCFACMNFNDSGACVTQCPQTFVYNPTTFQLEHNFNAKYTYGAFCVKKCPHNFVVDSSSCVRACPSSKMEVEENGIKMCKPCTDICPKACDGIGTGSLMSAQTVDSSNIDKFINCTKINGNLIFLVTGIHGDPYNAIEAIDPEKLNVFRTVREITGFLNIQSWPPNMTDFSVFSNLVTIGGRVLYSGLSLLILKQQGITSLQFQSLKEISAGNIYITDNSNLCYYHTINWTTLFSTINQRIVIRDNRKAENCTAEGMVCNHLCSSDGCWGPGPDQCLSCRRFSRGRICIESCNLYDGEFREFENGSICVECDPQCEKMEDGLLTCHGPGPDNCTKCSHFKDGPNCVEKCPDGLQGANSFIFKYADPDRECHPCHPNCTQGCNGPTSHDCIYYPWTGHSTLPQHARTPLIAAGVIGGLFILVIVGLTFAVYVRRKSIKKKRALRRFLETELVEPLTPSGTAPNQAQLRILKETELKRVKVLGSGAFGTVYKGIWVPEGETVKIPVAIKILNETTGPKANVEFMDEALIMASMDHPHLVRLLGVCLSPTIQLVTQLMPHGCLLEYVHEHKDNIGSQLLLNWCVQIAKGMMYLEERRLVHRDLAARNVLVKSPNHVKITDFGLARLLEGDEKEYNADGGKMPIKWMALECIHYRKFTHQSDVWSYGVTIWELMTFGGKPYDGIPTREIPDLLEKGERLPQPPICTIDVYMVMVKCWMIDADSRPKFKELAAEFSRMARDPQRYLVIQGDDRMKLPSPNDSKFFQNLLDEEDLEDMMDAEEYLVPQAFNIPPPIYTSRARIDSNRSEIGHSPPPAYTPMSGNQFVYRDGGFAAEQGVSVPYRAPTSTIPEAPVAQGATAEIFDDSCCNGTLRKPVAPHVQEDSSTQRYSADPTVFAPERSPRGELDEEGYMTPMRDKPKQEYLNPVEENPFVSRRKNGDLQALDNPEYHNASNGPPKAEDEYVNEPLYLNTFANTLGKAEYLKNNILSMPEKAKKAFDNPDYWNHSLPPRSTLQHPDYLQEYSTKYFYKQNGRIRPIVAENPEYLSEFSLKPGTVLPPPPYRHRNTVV
UniProt Q9H4B4, sequence (whole entry, looked up): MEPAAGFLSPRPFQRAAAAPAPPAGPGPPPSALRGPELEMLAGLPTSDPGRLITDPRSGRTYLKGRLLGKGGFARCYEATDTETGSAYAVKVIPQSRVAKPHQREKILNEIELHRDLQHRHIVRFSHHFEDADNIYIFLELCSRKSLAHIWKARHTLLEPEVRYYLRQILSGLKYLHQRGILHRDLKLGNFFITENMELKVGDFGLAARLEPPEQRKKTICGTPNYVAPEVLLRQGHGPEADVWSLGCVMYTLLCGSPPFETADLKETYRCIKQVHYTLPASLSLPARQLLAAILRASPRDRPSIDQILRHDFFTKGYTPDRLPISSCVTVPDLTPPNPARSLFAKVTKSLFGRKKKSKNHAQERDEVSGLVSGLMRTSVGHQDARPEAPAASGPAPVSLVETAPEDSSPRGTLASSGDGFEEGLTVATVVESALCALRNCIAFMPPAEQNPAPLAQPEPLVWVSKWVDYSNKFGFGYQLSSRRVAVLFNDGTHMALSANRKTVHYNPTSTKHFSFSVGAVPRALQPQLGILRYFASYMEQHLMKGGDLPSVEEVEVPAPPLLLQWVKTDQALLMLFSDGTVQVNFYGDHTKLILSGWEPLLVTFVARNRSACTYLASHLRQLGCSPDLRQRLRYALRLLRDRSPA

Block 1
Species: human
Matrix: microsomes or S9
Tested at: 2 µM
Time: 0.5 h
SMILES	remaining compound
Cc1nc2c(c(C)c(C)n2CCC2CCO2)c(-c2cc(F)c3c(c2C)CCCO3)c1[C@H](OC(C)(C)C)C(=O)O (stereo partly drawn)	68.5%
O=c1c(I)coc2cc(OC3CCCCO3)ccc12 (stereo not drawn)	66.9%
O=C1C2C3C=CC(O3)C2C(=O)N1Nc1ccccc1 (stereo not drawn)	39%
COc1cc(=O)[nH]cc1C(=O)N1CCC(=O)N2CCCC21 (stereo not drawn)	98.7%
COc1ccc(C(=O)N2CCC(Cc3noc(C4CCOCC4)n3)C2)cc1F (stereo not drawn)	88.3%
CCO[C@H]1CN(Cc2ccc3[nH]ccc3c2)C[C@@H]1O	95.5%
C/C=C/Cn1c(C(=O)c2ccccc2)c(C(C)C)c(=O)[nH]c1=O	> 99%
O=C(Cn1nc2n(CCc3ccccc3)c(=O)c3ccccc3n2c1=O)Nc1ccc2c(c1)OCO2	70.5%
CC(C)=CCn1c(CO)nc2c1c(=O)n(C)c(=O)n2C	> 99%
O=S(=O)(c1ccc2c(c1)OCCO2)n1cnc2ccccc21	0.195%
CCCC1(CCC)c2cc(NC(=O)[C@@H]3CCCN3C(=O)OC(C)(C)C)ccc2-c2ccc(NC(=O)[C@@H]3CCCN3C(=O)OC(C)(C)C)cc21	6.84%

Block 2
Compound: Cc1nc(Nc2ncc(C(=O)Nc3c(C)cccc3Cl)s2)cc(N2CCN(CCO)CC2)n1
Mode: inhibitor
target	conditions	inhibition [%]
NTRK1 (Homo sapiens, UniProt P04629)	1 µM	< 50
ERBB4 (Homo sapiens, UniProt Q15303)	1 µM	83
FGFR2 (Homo sapiens, UniProt P21802)	10 µM	84
PRKG1 (Homo sapiens, UniProt Q13976)	10 µM	< 50
PLK3 (Homo sapiens, UniProt Q9H4B4)	10 µM	< 50
FGFR3 (Homo sapiens, UniProt P22607)	10 µM	< 50
MYLK2 (Homo sapiens, UniProt Q9H1R3)	10 µM	73
CSNK2A1 (Homo sapiens, UniProt P68400)	10 µM	< 50
IKBKE (Homo sapiens, UniProt Q14164)	10 µM	< 50
CAMK2G (Homo sapiens, UniProt Q13555)	10 µM	< 50
BLK (Homo sapiens, UniProt P51451)	10 µM	95
PIK3C2B (Homo sapiens, UniProt O00750)	1 µM	< 50

Block 3
Target: Serine/threonine-protein kinase Sgk3 (SGK3, Homo sapiens, UniProt Q96BR1)
Observed: enzyme activity
Mode: inhibitor
Tested at: 0.5 µM
Relative to: control
Target sequence (Q96BR1 1-496): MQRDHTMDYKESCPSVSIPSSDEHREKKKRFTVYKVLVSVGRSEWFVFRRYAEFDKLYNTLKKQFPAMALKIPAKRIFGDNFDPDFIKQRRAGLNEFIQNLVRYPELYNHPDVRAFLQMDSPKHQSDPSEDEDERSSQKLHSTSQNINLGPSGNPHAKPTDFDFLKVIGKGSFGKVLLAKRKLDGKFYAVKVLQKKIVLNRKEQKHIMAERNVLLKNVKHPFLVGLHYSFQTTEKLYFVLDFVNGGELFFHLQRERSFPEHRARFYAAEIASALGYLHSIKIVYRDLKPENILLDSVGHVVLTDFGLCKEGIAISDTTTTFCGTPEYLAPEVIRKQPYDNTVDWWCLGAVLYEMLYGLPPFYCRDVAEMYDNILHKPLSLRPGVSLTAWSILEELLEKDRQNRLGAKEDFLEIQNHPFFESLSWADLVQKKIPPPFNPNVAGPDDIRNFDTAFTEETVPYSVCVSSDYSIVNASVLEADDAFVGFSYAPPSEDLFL
SMILES	remaining activity [%]
Ic1cccc(CSc2nnc(-c3ccncc3)o2)c1	98.5
O=c1cc(-c2cccc3c2Sc2ccccc2S3)oc(N2CCOCC2)c1	98.6
N#C/C(=C\c1ccc(O)c(O)c1)C(=O)NCc1ccccc1	102
CCN(CC)C(=O)c1ccc(Nc2nc(OCC3CCCCC3)c3[nH]cnc3n2)cc1	97.2
CN(C)C[C@H]1CCn2c(c(C3=C(c4cn(C)c5ccccc45)C(=O)NC3=O)c3ccccc32)C1	95
COc1cc2c(cc1OC)-c1[nH]nc(Nc3cccc(F)c3)c1C2	92.7
Cc1cn(-c2cc(NC(=O)c3ccc(C)c(Nc4nccc(-c5cccnc5)n4)c3)cc(C(F)(F)F)c2)cn1	102
Nc1cccc(-c2cc3c(Oc4cccc(O)c4)ncnc3[nH]2)c1	117
O=C1C(Cl)=C(N2C(=O)CCC2=O)C(=O)c2ccccc21	103
COc1cc2ncnc(Nc3ccc(O)c(Br)c3)c2cc1OC	94.5
CN([C@@H](Cc1ccc(OS(=O)(=O)c2cccc3cnccc23)cc1)C(=O)N1CCN(c2ccccc2)CC1)S(=O)(=O)c1cccc2cnccc12	104
COc1cc2ncnc(Nc3cccc(Cl)c3)c2cc1OC	90.9
Cn1nc2c3c(cccc31)C(=O)c1ccccc1-2	107
c1ccc(-c2[nH]ncc2-c2ccnc3ccccc23)nc1	97.4
N#Cc1c(NC(=O)c2cccc3ccccc23)sc2c1CCCC2	107
O=C(NC(NC(=S)Nc1ccc(F)c([N+](=O)[O-])c1)C(Cl)(Cl)Cl)C(c1ccccc1)c1ccccc1 (stereo not drawn)	85.8
O=C(Nc1cccc(Nc2nccc(Nc3cccc(C(F)(F)F)c3)n2)c1)C1CC1	111
Cc1cc2ncc(-c3ccccc3)nc2cc1C	101
O=C1c2ccccc2-c2n[nH]c3cccc1c23	94.6
Cc1nc2cc3nc(-c4cccs4)cnc3cc2n1C	105
CCN(CC)CCNC(=O)c1c(C)[nH]c(/C=C2\C(=O)Nc3ccc(Cl)cc32)c1C	103

Further values, each from its own experiment
SMILES	target	assay	conditions	endpoint	value
Cc1nc(Cc2cccc(C(F)(F)F)c2)sc1-c1ccc(C(N)=O)nc1	5-hydroxytryptamine receptor 3A (HTR3A, Homo sapiens, UniProt P46098)	binding, radioligand binding	10 µM	inhibition	4.72%
